{"data": "Measurements of several laboratories", "note": "Numbered parts are unrelated; each lists some results of a single study. Positions count from the first letter of the parent shown."}
{"data": "Study 1", "target": "CCND2, cyclin fold, Cln2 fusion (human)", "technique": "yeast growth competition, sequencing", "medium": "yeast", "setting": "weak parent motif", "relative to": "not given", "reading": "higher = stronger binding", "starting sequence": "SGO1 docking peptide (human); PLAKRALKYTDEK"}
{"Change": "L2A", "normalised enrichment score": 0.451}
{"Change": "P1A", "normalised enrichment score": 0.0956}
{"Change": "K4A", "normalised enrichment score": 0.175}
{"Change": "L7A", "normalised enrichment score": -0.104}
{"Change": "K8A", "normalised enrichment score": 0.0921}
{"Change": "K13A", "normalised enrichment score": -0.131}
{"data": "Study 2", "target": "ABI1, truncated, D143A, DHFR fusion (Arabidopsis thaliana)", "technique": "DHFR PCA, deep sequencing", "medium": "yeast", "setting": "methotrexate growth selection, single substitutions", "together with": "(+)-ABA 710 µM", "relative to": "wild-type fitted maximum", "reading": "higher = stronger binding", "starting sequence": "PYL1, truncated, DHFR fusion (Arabidopsis thaliana); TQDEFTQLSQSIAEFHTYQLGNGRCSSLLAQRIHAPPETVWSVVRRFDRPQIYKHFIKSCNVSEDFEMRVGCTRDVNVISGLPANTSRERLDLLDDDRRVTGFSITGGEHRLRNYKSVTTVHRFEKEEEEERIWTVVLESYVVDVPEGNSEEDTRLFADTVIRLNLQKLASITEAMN; partner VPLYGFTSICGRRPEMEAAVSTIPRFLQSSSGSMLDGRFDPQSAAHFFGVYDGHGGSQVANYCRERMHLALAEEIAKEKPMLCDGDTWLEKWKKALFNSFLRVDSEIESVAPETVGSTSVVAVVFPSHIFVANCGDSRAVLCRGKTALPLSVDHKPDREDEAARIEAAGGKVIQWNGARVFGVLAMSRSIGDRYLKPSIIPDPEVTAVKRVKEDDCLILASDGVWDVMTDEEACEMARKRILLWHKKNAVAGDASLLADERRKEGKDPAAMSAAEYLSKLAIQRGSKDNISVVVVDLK"}
{"Change": "A170L", "relative binding score": "82.6%"}
{"Change": "R155M", "relative binding score": "96.6%"}
{"Change": "A30G", "relative binding score": "96.1%"}
{"Change": "G23P", "relative binding score": "86.3%"}
{"Change": "N61E", "relative binding score": "103%"}
{"Change": "S11V", "relative binding score": "106%"}
{"Change": "S27V", "relative binding score": "24.1%"}
{"Change": "V44P", "relative binding score": "-1.56%"}
{"Change": "N22Y", "relative binding score": "99.5%"}
{"Change": "L169G", "relative binding score": "-2.56%"}
{"Change": "T101S", "relative binding score": "96.7%"}
{"Change": "T135K", "relative binding score": "0.445%"}
{"Change": "D144L", "relative binding score": "77.7%"}
{"Change": "L29D", "relative binding score": "9.77%"}
{"data": "Study 3", "target": "RNA binding protein fox-1 homolog 2, RRM domain, GST-SBP tag (RBFOX2, Homo sapiens, UniProt O43251-10, residues 100-194)", "technique": "RNA Bind-n-Seq", "form": "RNA", "medium": "in vitro", "concentration": "365 nM", "setting": "natural RNA segment, single round, ends assumed", "relative to": "no-protein control", "reading": "higher = stronger binding", "Residues (chain)": "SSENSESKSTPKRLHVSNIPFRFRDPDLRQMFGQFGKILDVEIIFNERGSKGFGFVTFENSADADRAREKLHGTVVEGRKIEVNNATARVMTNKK"}
{"Strand": "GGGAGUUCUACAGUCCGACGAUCAUAUUUUGAAAUAUAUUUGAUAUAGUACUCUGCCAUUUUCAUCAUGUUAACUUUCAGUGUCACCAUCUUACAGCUUAGGGGCAUUUGCAUUCCCCUGACAAAGGUAUCAUUGGAAUUCUCGGGUGCCAA", "RBNS enrichment (R)": 0.312}
{"Strand": "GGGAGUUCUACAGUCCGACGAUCAAGUGGCCGCUAGAGAAGAAUACAAUUUAGCAGCAACUGCCGGCUCUUUGGGCAGAGGUUUGAUUUUUGGCAUUUGUACAAGCCGCACGGGCAAAGGGGGAAAAGAAUGCUGGAAUUCUCGGGUGCCAA", "RBNS enrichment (R)": 2.31}
{"Strand": "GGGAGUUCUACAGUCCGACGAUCCAUGUUGAUUCUUGUAAGCACUGGACUGUCUUCAUCAAGUAUUUCCCUACAGAACUCCUCAAGAAAACAGAGAUCAUUUGGCUAGAGAUUGUCUGAGUGACUCCAAGCUAUGGAAUUCUCGGGUGCCAA", "RBNS enrichment (R)": 0.393}
{"Strand": "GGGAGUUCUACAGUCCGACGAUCGGGUUCAGAAUUGUAGCCUCAGCCUGUUUGACAAAGGUCUUGGGAACUCUGUGACUGCUUUGCCCACCAGUGUCAUCAUGUCAUUUGCCCUAAACACCUUGUAGUUGCUGUGGAAUUCUCGGGUGCCAA", "RBNS enrichment (R)": 0.707}
{"Strand": "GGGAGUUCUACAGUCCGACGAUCAGAGGCCCUGGACAGAAGCUCCAGAUAGGCCCCUAGAACAUGAAGCAGUUUGCUCUGUGCGUCCACGGCCUAGGUGUUUCUUGGGGGUGUUGGGAGGGCAGGAGCAUUCCUGGAAUUCUCGGGUGCCAA", "RBNS enrichment (R)": 0.272}
{"Strand": "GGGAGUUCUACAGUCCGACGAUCCAUGUUGUAGAGCCUUUUCUUAGGUGGAGUAUUUCUGAAGGCUUUAAAAUCAUUACAAUAAAAACCCAAAUUGGAACUAUCUCCUCCCUUUACCCCUUUCCCUUAAUUCCUGGAAUUCUCGGGUGCCAA", "RBNS enrichment (R)": 0.804}
{"Strand": "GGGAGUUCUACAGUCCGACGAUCAGUAGAAAGGGCGACUGACCCUCAUCAAACACAGUCUUAGCGGAGAUCCACUGAUGGCCCUGGCCCCUGCUGGGGCGGGGCAGGAGGCAGCCCUGCUCCUUGCCUUUUGCUGGAAUUCUCGGGUGCCAA", "RBNS enrichment (R)": 0.249}
{"Strand": "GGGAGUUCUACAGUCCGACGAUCAAGUAACCUAACAGAGCUUUGAUGUUAUAGCUGCAUUAAAGAAGGUGAUUGUCAAUAUUACAGAAAACAAAAAUGGAUUGCCCCUCCAAGGACCAAACAGAUUCAAGGAGUGGAAUUCUCGGGUGCCAA", "RBNS enrichment (R)": 0.434}
{"data": "Study 4", "target": "Centromere-binding protein 1, full length, His-tagged (CBF1, Saccharomyces cerevisiae, UniProt P17106, residues 1-351)", "technique": "competition protein-binding microarray", "form": "double-stranded DNA, one strand shown", "medium": "in vitro", "concentration": "2 µM", "setting": "whole 60-bp probe, lowest competitor level", "together with": "Pho4 competitor, 0.05 µM", "reading": "higher = stronger binding", "sequence of UniProt P17106 (whole entry, looked up)": "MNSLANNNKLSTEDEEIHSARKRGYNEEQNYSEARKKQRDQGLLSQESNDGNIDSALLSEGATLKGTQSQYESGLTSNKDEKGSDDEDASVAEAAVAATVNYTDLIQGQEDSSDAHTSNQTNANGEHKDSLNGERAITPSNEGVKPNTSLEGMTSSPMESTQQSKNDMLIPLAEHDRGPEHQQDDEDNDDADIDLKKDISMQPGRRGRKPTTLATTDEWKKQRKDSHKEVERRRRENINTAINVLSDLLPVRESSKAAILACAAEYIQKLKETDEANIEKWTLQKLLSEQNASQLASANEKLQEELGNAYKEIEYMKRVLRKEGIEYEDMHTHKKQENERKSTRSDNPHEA"}
{"Strand": "AAAGCGGTAATTTGTCACTCAACTTCACATATCTATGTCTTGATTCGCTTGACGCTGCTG", "fluorescence intensity": "98.9 a.u."}
{"Strand": "GGATTAGACAATGGAGAAGATGGGATGAGACACATTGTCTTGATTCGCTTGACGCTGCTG", "fluorescence intensity": "66.6 a.u."}
{"Strand": "CATACCCAACCTTGGGCTGTGGGTGAAGATATTTGTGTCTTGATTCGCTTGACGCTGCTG", "fluorescence intensity": "59.7 a.u."}
{"Strand": "CATCCCAATAGAATCCACGTGGGTAAAAGCTACGGCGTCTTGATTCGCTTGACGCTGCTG", "fluorescence intensity": "943 a.u."}
{"Strand": "CTGTTTTAACATTGGCTCGTGACGGACTAGATCCTCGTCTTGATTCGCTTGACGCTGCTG", "fluorescence intensity": "343 a.u."}
{"Strand": "AAGCCCCAAAACGGCCACGTGATGGACTAGTTGCGCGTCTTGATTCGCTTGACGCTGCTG", "fluorescence intensity": "3020 a.u."}
{"Strand": "TGACTCACCCCCGGCCACGTGGCCGGTAGGAGGCCCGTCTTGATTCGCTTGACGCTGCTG", "fluorescence intensity": "745 a.u."}
{"Strand": "AAAGCGGTAATTTTTCACGTGTGGTCAAATATCTATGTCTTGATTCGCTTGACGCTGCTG", "fluorescence intensity": "1050 a.u."}
{"Strand": "CTTTCCCGATCTTGCTGTGTGGGTGTAGCACATTTGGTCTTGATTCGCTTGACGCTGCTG", "fluorescence intensity": "73.3 a.u."}
{"Strand": "AGTGCTCATACGCATCATATGACATGGATGATACGGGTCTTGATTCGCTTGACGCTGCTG", "fluorescence intensity": "361 a.u."}
{"Strand": "CGGGGTTAAGTTTGGTTAGTGGGTGGCTTGCAGCAGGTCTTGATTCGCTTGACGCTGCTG", "fluorescence intensity": "69.7 a.u."}
{"Strand": "TGCGCAACAACTTGCCGTGTGGGTGTATGTCTAGAAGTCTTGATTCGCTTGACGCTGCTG", "fluorescence intensity": "58 a.u."}
{"Strand": "GCAAGGAAGATGAAACACGATGTCGTTGTGATGAGGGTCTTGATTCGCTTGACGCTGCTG", "fluorescence intensity": "107 a.u."}
{"Strand": "CGTTTCCTGGGAAATCACGTGCTCTGTCATTGAATTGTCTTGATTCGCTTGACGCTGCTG", "fluorescence intensity": "8980 a.u."}
{"Strand": "GTAACCAGACAAGTCAGCGTGAGGACAGTTGGATTCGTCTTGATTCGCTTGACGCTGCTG", "fluorescence intensity": "82.5 a.u."}
{"Strand": "GTTATTCTCTAGTGTTTCGTGCTAAAATAACCGAGTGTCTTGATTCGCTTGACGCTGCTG", "fluorescence intensity": "100 a.u."}
{"Strand": "TGTAGAGCAAACCGTAGTGGTAATAGTGGTTGTTGAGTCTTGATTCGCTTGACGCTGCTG", "fluorescence intensity": "60.4 a.u."}
{"data": "Study 5", "target": "Histone acetyltransferase KAT6A, winged helix 2, GST fusion (KAT6A, Homo sapiens, UniProt Q92794, residues 85-181)", "technique": "protein binding microarray", "form": "double-stranded DNA, one strand shown", "medium": "in vitro", "concentration": "not given", "setting": "8-mer, flanks averaged, mean of 2 arrays, mostly near background", "relative to": "not given", "reading": "higher = stronger binding", "Construct (chain)": "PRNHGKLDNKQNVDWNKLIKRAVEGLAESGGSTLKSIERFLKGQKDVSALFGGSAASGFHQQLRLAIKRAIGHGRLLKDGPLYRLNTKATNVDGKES"}
{"Strand": "AAGGTAAA", "E-score": 0.0846}
{"Strand": "CGCTCTCC", "E-score": 0.0682}
{"Strand": "ACTATCAC", "E-score": -0.118}
{"Strand": "CGCGTGAA", "E-score": 0.0529}
{"Strand": "ATCAACTC", "E-score": 0.0847}
{"Strand": "ATTGGTCC", "E-score": -0.138}
{"Strand": "GATCGCAA", "E-score": 0.175}
{"Strand": "CGCTCAAA", "E-score": 0.0294}
{"Strand": "CTAACCGA", "E-score": -0.0899}
{"Strand": "CGCTTCAC", "E-score": 0.0799}
{"Strand": "GGGATTTA", "E-score": 0.00253}
{"Strand": "ATCTTGAG", "E-score": -0.128}
{"Strand": "ACTATAGG", "E-score": -0.167}
{"Strand": "AATTACCC", "E-score": -0.181}
{"Strand": "GACGAGGA", "E-score": 0.0951}
{"Strand": "AACTGCGG", "E-score": 0.0826}
{"Strand": "GCATGCCA", "E-score": 0.0204}
{"Strand": "CAGTGGAC", "E-score": 0.0323}
{"Strand": "ATGCGAAT", "E-score": 0.00264}
{"Strand": "GGAATGGA", "E-score": -0.0651}
{"note": "Excerpt of the above (study 2):"}
{"Change": "R155M", "relative binding score": "96.6%"}
{"Change": "A30G", "relative binding score": "96.1%"}
{"Change": "G23P", "relative binding score": "86.3%"}
{"Change": "N61E", "relative binding score": "103%"}
{"Change": "S11V", "relative binding score": "106%"}
{"Change": "S27V", "relative binding score": "24.1%"}
{"Change": "V44P", "relative binding score": "-1.56%"}
{"Change": "N22Y", "relative binding score": "99.5%"}
{"Change": "L169G", "relative binding score": "-2.56%"}
{"Change": "T101S", "relative binding score": "96.7%"}
